Published values pooled from the literature.
Each line is one published result; not all experiments were run side by side. Values joined by “and” are separate records of one study, mostly repeats; a detail may differ. ± marks the error that the study gave.

SMILES | assay | system | setting | scale | measurement | value
CC(C)CC(=O)OC[C@H]1O[C@@](C#N)(c2ccc3c(N)ncnn23)[C@H](O)[C@@H]1O | – | monkey plasma | 9 µM | – | fraction unbound | 0.317
N[C@@H]1c2ccccc2OC12CCN(c1cnc3c(N4CCCc5ncccc54)n[nH]c3n1)CC2 | – | advanced metastatic solid tumour patients | oral, 40 mg once daily | – | TEAE leading to withdrawal | 0%
CO[C@H]1C[C@@H]2CC[C@@H](C)[C@@](O)(O2)C(=O)C(=O)N2CCCC[C@H]2C(=O)O[C@H]([C@H](C)C[C@@H]2CC[C@@H](OC(=O)NCCOCCOCCOCCOCCOCCOCCOCCOCCC(=O)N3CCc4cc(Cn5nc(-c6ccc7oc(N)nc7c6)c6c(N)ncnc65)ccc4C3)[C@H](OC)C2)C[C@@H](O)[C@H](C)/C=C(\C)[C@@H](O)[C@@H](OC)C(=O)[C@H](C)C[C@H](C)/C=C/C=C/C=C/1C | – | patients with advanced solid tumours | intravenous, 10 mg weekly, any grade | – | AE leading to dose interruption | 87.5%
COc1ccc2nc3cc(Cl)ccc3c(Nc3cc(CN4CCCC4)c(O)c(CN4CCCC4)c3)c2n1 | – | mouse, blood | intraperitoneal, 57 mg/kg | – | basophil count | 0.09 10⁹/L
C[C@@H]1NC(=O)[C@H](CCCCNC(=O)CO/N=C/C(=O)NCCCC[C@@H]2NC(=O)[C@@H](Cc3ccccc3)NC(=O)[C@H](CC(=O)O)NC(=O)CNC(=O)[C@H](CCCNC(=N)N)NC2=O)NC(=O)CNC(=O)[C@@H]2CCCN2C(=O)[C@H](CCCCNC(=O)CO/N=C/C(=O)NCCCC[C@@H]2NC(=O)[C@@H](Cc3ccccc3)NC(=O)[C@H](CC(=O)O)NC(=O)CNC(=O)[C@H](CCCNC(=N)N)NC2=O)NC(=O)[C@H](CCCCNC(=O)CCNC(=O)CCNC(=O)CCNC(=O)[C@H](CCCCN)NC(=O)[C@H](Cc2ccccc2)NC(=O)CNC(=O)CN2CCCNCCNCCCNCC2)NC(=O)[C@H](CCCCNC(=O)CO/N=C/C(=O)NCCCC[C@@H]2NC(=O)[C@@H](Cc3ccccc3)NC(=O)[C@H](CC(=O)O)NC(=O)CNC(=O)[C@H](CCCNC(=N)N)NC2=O)NC(=O)CNC(=O)[C@@H]2CCCN2C(=O)[C@H](CCCCNC(=O)CO/N=C/C(=O)NCCCC[C@@H]2NC(=O)[C@@H](Cc3ccccc3)NC(=O)[C@H](CC(=O)O)NC(=O)CNC(=O)[C@H](CCCNC(=N)N)NC2=O)NC1=O [copper-64 labelled] | – | normal mice, lung | intravenous, 0.74 MBq, 24 h post-injection | – | tissue uptake | 2.95 ± 0.51 %ID/g
CC1(C)[C@H](C(=O)O[C@H](C#N)c2cccc(Oc3ccccc3)c2)[C@@H]1C=C(Br)Br | refers to: CYP3A4 | human, age 6 months, recombinant human CYP3A4 | 0.1 µM | – | enzyme contribution to clearance | 0.57%
CC(C)(O)c1cc(Nc2cc(Oc3cn(C4CC4)nc3C3CCOCC3)ccn2)ccn1 | refers to: Headache | Japanese patients with advanced cancer | oral, dose not given, any grade | – | treatment-emergent adverse events | 0%
CCN1[C@@H](C(=O)NC23CCC(C(=O)O)(CC2)CC3)[C@H](c2cccc(Cl)c2F)[C@]2(C(=O)Nc3cc(Cl)ccc32)C12CCCCC2 | – | patients with advanced solid tumours | oral, 100 mg | – | anorexia incidence | 0%
Cn1c(-c2ccc(C(N)=O)cc2F)nnc1C(C)(C)Oc1c(F)cc(Cl)cc1F | – | human | oral, 60 mg, single ascending dose | – | vessel puncture site pain | 0%
C[C@]1(CO)Cc2ncn(-c3ccc(C#N)c(Cl)c3)c2C(=O)O1 | – | human | 80 mg multiple doses, fasted | – | subjects with drug-related hyperhidrosis | 0%
COc1ccc(F)cc1C(=O)NCc1ccc(-c2nn([C@@H](C)C(F)(F)F)c(N)c2C(N)=O)cc1 | – | human, plasma | oral, 200 mg once daily, added: oral midazolam | – | AUCtau | 118000 ng·h/mL
Nc1nc2cc(-c3ccc4ncc(C(=O)N5CCOCC5)n4c3)ccc2o1 | refers to: Diarrhea, any cause, all grades | patients with advanced solid tumours | dose not given | – | patients with adverse events | 44%
Cn1ncc(-c2nc(N[C@H]3CC[C@H](N)CC3)ncc2Cl)c1CC1CC1 | HPLC-MS/MS | patients, plasma | oral, 5 mg, day 5 | – | half-life | 18.3 h
Nc1ncnc2c1ncn2[C@@H]1O[C@@H]2COP(=O)([S-])O[C@@H]3[C@H](O)[C@@H](COP([O-])(=S)O[C@H]2[C@H]1O)O[C@H]3n1cnc2c(N)ncnc21.[Na+].[Na+] (some centres unmarked) | – | non-tumor-bearing mice, serum | intravenous, 1 mg/kg, toxicity study | – | globulin | 23 ± 2.45 g/L
CN1CC[C@@H](c2c(O)cc(O)c3c(=O)cc(-c4ccc(C(F)(F)F)cc4Cl)oc23)[C@@H]1CO | refers to: Anemia | relapsed AML | oral, 150 mg, grade 3-4, intermittent dosing | – | patients with adverse event | 50%
C=CCNc1c(O)cc2c(O)c1C[C@@H](C)C[C@H](OC)[C@H](O)[C@@H](C)/C=C(\C)[C@H](OC(N)=O)[C@@H](OC)/C=C\C=C(/C)C(=O)N2 | – | unresectable or metastatic sarcoma | intravenous, 300 mg/m^2, grade 3-4 lab change | – | patients with lipase increase | 33%
O=C(Nc1ccccc1)C1CCN(C(=O)Oc2cccnc2)CC1 | psychotropic effects VAS | healthy women | 20 mg | relative to: pre-dose baseline, direction not given | change in Suspicious score | 1.1
C1=Cc2nc1cc1ccc([n-]1)c(C1CC1)c1nc(cc3ccc([n-]3)c2C2CC2)C=C1.CC(=O)[O-].[Mn+3] | LC-MS/MS | Sprague-Dawley rat, plasma | oral gavage, dose not given, 120 min, individual rat Rat2 | – | plasma concentration | 151 ng/mL
COc1ccc(N=Nc2ccc3[nH]cc(CCN(C)C)c3c2)cc1 | light irradiation | solution | added: light 385 nm | – | cis isomer at photostationary state | 90%

SMILES | assay | system | setting | scale | measurement | value
CC[C@H](C)[C@H](NC(=O)[C@H](Cc1ccccc1)NC(=O)[C@H](CCC(=O)O)NC(=O)[C@H](CCCNC(=N)N)NC(=O)[C@H](C)NC(=O)[C@H](C)NC(=O)[C@H](CCC(N)=O)NC(=O)[C@H](CCC(=O)O)NC(=O)[C@H](CCC(=O)O)NC(=O)[C@H](CC(C)C)NC(=O)[C@H](Cc1ccc(O)cc1)NC(=O)[C@H](CO)NC(=O)[C@H](CO)NC(=O)[C@@H](NC(=O)[C@H](CC(=O)O)NC(=O)[C@H](CO)NC(=O)[C@@H](NC(=O)[C@H](Cc1ccccc1)NC(=O)[C@@H](NC(=O)CNC(=O)[C@H](CCC(=O)O)NC(=O)[C@H](C)NC(=O)CCc1cnc[nH]1)[C@@H](C)O)[C@@H](C)O)C(C)C)C(=O)N[C@@H](C)C(=O)N[C@@H](Cc1c[nH]c2ccccc12)C(=O)N[C@@H](CC(C)C)C(=O)N[C@H](C(=O)N[C@@H](CCCNC(=N)N)C(=O)NCC(=O)N[C@@H](CCCNC(=N)N)C(=O)N[C@@H](CCCCNC(=O)COCCOCCNC(=O)COCCOCCNC(=O)CC[C@H](NC(=O)CCCCCCCCCCCCCCCCC(=O)O)C(=O)O)C(=O)NCC(=O)NCC(=O)N[C@@H](CO)C(=O)N[C@@H](CCCCNC(=O)[C@H](CCCCNc1c(NCCCCCN(O)C(=O)CCC(=O)NCCCCCN(O)C(=O)CCC(=O)NCCCCCN(O)C(C)=O)c(=O)c1=O)Nc1c(NCCCCCN(O)C(=O)CCC(=O)NCCCCCN(O)C(=O)CCC(=O)NCCCCCN(O)C(C)=O)c(=O)c1=O)C(=O)O)C(C)C [zirconium-89 labelled] | ex vivo gamma counting | Sprague-Dawley rat, male, spleen | intravenous, 1 nmol, 24 h | – | tissue uptake | 0.584 %ID/g and 0.619 %ID/g and 0.656 %ID/g and 0.56 %ID/g and 0.583 %ID/g
COc1cc2c(Oc3ccc4[nH]c(C)cc4c3F)ccnc2cc1OCC1(N)CC1 | – | paediatric recurrent refractory sarcoma | 8 mg/kg | – | grade 1 or 2 ALT elevation | 13.3%
CC(C)C[C@H](NC(=O)[C@H](CCCCN)NC(=O)OCC1c2ccccc2-c2ccccc21)C(=O)N[C@H](C(=O)N[C@@H](Cc1ccccc1)C(=O)N[C@@H](Cc1ccccc1)C(=O)N[C@@H](CCCCN)C(=O)NCC(=O)N[C@@H](Cc1ccccc1)C(=O)N[C@@H](C)C(=O)N[C@@H](Cc1c[nH]c2ccccc12)C(=O)N[C@@H](CC(N)=O)C(=O)N[C@H](C(=O)N[C@H]1CSSC[C@@H](C(=O)N[C@@H](Cc2c[nH]cn2)C(=O)N[C@@H](CCCNC(=N)N)C(=O)N[C@@H](CCCNC(=N)N)C(=O)N[C@@H](C)C(=O)N[C@@H](CC(N)=O)C(N)=O)NC(=O)[C@H](C(C)C)NC(=O)[C@H](CCCNC(=N)N)NC(=O)[C@H](C(C)C)NC(=O)CNC(=O)[C@H](CC(N)=O)NC(=O)[C@H](CCCNC(=N)N)NC(=O)[C@H](Cc2ccc(O)cc2)NC(=O)[C@H](C(C)C)NC1=O)C(C)C)C(C)C | – | ICR mouse, blood | intramammary, 5 mg/kg, day 5, 3 d dosing | – | creatinine | 85.5 ± 3.38 µmol/L
O=S(=O)(Nc1ccccc1)c1ccc(NC(=S)Nc2ccccc2)cc1 | refers to: LY% | female mouse, blood | oral, 5 mg/kg daily, 14 days | – | blood cell fraction | 76.2%
COc1ccc(-c2c(-c3ccc(C#N)c(F)c3)nc(N3CCC(N)CC3)n(C)c2=O)cc1F | refers to: bone pain | human patients | oral, dose not given, dose escalation, NG | – | serious adverse event incidence | 2%
CC(=O)c1c(C)c2cnc(Nc3ccc(C4CCN(CCS(C)(=O)=O)CC4)cn3)nc2n(C2CCCC2)c1=O | – | human, plasma | oral, 75 mg twice daily, day 1, single dose, added: fulvestrant | – | Vd | 816 L
[O-][S+]1CCc2nc(N3CCC(c4ncc(Cl)cn4)CC3)nc(NC3(CO)CCC3)c21 (centres unmarked) | phase I trial, refers to: infections and infestations | idiopathic pulmonary fibrosis patients | 18 mg twice daily | – | subjects with adverse events | 50%
Clc1ccc(-c2cc(Cl)c(Cl)cc2Cl)cc1Cl | – | cow whole milk | 2000 nM | relative to: milk fat over skim milk | milk fat partition ratio | 466
C[C@@H](NC(=O)N1C(=O)[C@H](Cc2ccnc(N)c2)[C@H]1C(=O)O)C1CCCCC1 | – | healthy Chinese adults | continuous intravenous infusion, 0.6 mg/kg/h, 5.0 days | – | urine leukocyte-positive | 0%
CC[C@H](C)CCCCC(=O)N[C@@H](CCN)C(=O)N[C@H](C(=O)N[C@@H](CCN)C(=O)N[C@H]1CCNC(=O)[C@H]([C@@H](C)O)NC(=O)[C@H](CCN)NC(=O)[C@H](CCN)NC(=O)[C@H](CC(C)C)NC(=O)[C@@H](Cc2ccccc2)NC(=O)[C@H](CCN)NC1=O)[C@@H](C)O | – | critically ill patients, plasma | intravenous, 2.1 mg/kg/day, median | – | AUC(0-24 h) at steady state | 78300 ng·h/mL
CCNCCCNC/C=C\CNCCCNCC | – | human, advanced solid tumours | intravenous, dose not given | relative to: patients | serious TEAE, abdominal pain | 6.5%
CN1CCN(S(=O)(=O)c2cc([N+](=O)[O-])ccc2N(CCOS(C)(=O)=O)CCOS(C)(=O)=O)CC1 | – | NOD/SCID mouse, naive, blood | intraperitoneal, 12.5 mg/kg, week 1 | – | hemoglobin | 126 g/L and 150 g/L and 144 g/L and 156 g/L
O=c1cc(-c2ccc(O)c(O)c2)oc2cc(O)cc(O)c12 | – | male Sprague-Dawley rat, lean | oral, 100 mg/kg of neohesperidin, 24 to 36 h, after β-glucuronidase/sulfatase hydrolysis | – | urinary excreted amount, total | 109 ± 35.5 ng
COc1cc(N2CCC(N3CCN(C)CC3)CC2)ccc1Nc1ncnc(Nc2ccccc2S(=O)(=O)C(C)C)n1 | refers to: Diarrhea | Japanese patients with solid tumours | oral, dose not given, all grades | – | treatment-emergent adverse events | 7 number (percent)
COc1cccc(Oc2ccccc2NC(=O)CNC(=O)c2cccc3ccccc23)c1 | – | esterase-deficient SCID mice, male | oral, 100 mg/kg/day, 14 days, toxicity study | – | serum calcium | 10 mg/dL and 9.3 mg/dL and 10.6 mg/dL
O=C(O)CCCOc1ccc(F)cc1-c1cc(-c2ccccc2C(F)(F)F)n(-c2ccccc2)n1 | – | Crl:CD(SD) rats, female, blood | iv, 25 µg/kg, 14 days | – | mean corpuscular volume | 54.4 fL
COc1ncnn2ccc(-c3cnc4nc(C)n(Cc5nnc([C@@H](C)F)o5)c4c3)c12 | – | human patients | oral, dose not given | – | incidence of grade 1 adverse events | 7.1%
COC[C@]12CN(C)[C@@H]3[C@@H]4[C@H](OC)[C@H]1[C@@]3([C@@H](OC)C[C@H]2O)[C@@H]1C[C@@]2(O)[C@H](OC(=O)c3ccccc3)[C@@H]1[C@]4(OC(C)=O)[C@@H](O)[C@@H]2OC | – | Sprague-Dawley rat, plasma | oral, dose not given, with NADES in PCW extract | – | Tmax | 0.833 ± 0.144 h
CCc1ccc(CC/C=C/c2ccc3c(c2)C(=O)CC3)cc1 | – | Sprague-Dawley rat, male, blood | oral, 30 mg/kg/day, 14 days | – | large unstained cells | 1%
